Results of several laboratories.
Each numbered part is a random draw from the data of one study; scales do not carry over between parts.

Sample 1
Host: human
Medium: microsomes or S9
Tested at: 2 µM
Time: 0.5 h
SMILES | remaining compound [%]
O=C(Nc1ccc2nc[nH]c(=O)c2c1)c1cc(-c2ccc(Br)s2)n[nH]1 | 70.6
COc1ccc(-c2nnc(N(C)C)n2-c2ccc(C)cc2)c(OC)c1 | 21.2
Cc1ccc(S(=O)(=O)CCc2noc(C(=O)NCCc3ccc(S(N)(=O)=O)cc3)n2)cc1 | 66.9
COC(=O)c1csc(COc2ccc(F)c(F)c2)n1 | 50.3
COc1cc(OC)c(C(=O)Nc2sc(C(C)C)cc2C(=O)OC(C)C)cc1OC | 83.1

Sample 2
Target: STE20-like serine/threonine-protein kinase (SLK, Homo sapiens, UniProt Q9H2G2)
Chain of UniProt Q9H2G2 (whole entry, looked up): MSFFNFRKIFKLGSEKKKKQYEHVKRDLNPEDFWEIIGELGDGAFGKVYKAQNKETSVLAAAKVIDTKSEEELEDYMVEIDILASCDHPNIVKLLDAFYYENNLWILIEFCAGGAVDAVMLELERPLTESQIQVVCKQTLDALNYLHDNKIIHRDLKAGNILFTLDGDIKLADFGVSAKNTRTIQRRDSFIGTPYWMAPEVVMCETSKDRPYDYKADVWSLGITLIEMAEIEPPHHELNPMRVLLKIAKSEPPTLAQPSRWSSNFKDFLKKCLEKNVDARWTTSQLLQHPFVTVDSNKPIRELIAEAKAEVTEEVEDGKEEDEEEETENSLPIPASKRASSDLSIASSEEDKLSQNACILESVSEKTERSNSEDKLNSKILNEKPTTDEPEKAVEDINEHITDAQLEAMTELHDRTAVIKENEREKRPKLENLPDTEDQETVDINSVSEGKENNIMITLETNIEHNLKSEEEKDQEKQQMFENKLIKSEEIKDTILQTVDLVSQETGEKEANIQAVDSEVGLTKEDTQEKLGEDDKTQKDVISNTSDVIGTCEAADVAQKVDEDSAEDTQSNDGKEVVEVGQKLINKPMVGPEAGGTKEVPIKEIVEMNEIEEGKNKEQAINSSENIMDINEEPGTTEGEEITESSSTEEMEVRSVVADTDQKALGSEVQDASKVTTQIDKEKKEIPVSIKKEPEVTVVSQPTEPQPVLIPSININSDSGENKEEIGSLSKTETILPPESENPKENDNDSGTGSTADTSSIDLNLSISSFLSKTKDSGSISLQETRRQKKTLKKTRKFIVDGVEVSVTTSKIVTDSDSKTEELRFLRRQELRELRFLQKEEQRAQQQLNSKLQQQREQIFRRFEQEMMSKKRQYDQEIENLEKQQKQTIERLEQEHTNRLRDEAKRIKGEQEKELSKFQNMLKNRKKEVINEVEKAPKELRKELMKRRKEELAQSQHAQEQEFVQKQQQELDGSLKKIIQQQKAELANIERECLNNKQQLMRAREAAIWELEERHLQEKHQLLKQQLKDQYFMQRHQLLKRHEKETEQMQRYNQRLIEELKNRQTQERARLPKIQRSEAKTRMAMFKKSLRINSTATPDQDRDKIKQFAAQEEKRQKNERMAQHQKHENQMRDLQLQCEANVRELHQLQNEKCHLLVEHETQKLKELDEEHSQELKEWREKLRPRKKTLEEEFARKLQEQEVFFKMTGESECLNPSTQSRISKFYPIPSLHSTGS
Observed: enzyme activity
Mode: inhibitor
Tested at: 0.5 µM
Relative to: control
Compound | remaining activity [%]
Cc1nc(-c2ccccc2)c(-c2ccncc2)o1 | 101
C#Cc1cccc(Nc2ncnc3cc(OCCOC)c(OCCOC)cc23)c1 | 42
CC(C)[C@H](CO)Nc1nc(Nc2cc(N)cc(Cl)c2)c2ncn(C(C)C)c2n1 | 39.8
Nc1ccc2ncnc(NCCc3ccc(Oc4ccccc4)cc3)c2c1 | 102
COc1ccc(C(=O)Nc2sc3c(c2C(N)=O)CCCC3)cc1OC | 92.5
O=C1NC(=O)C(c2cn(CCCO)c3ncccc23)=C1c1cnccn1 | 106
COc1ccc(CNC(=O)Nc2ncc([N+](=O)[O-])s2)cc1 | 88.9
Cc1cccc(-c2[nH]c(C(C)(C)C)nc2-c2ccc3c(c2)OCO3)n1 | 108
CCOC(=O)c1c(C)[nH]c(/C=C2\C(=O)Nc3ccccc32)c1C | 89.8
Nc1ncnc2n[nH]c(Nc3ccc(F)cc3)c12 | 99.5
COc1cc2nccc(Oc3ccc(NC(=S)NC(=O)c4ccccc4C)cc3)c2cc1OC | 6.2
OCC(O)CCON=C1C(c2c(O)[nH]c3ccccc23)=Nc2ccccc21 (centres unmarked) | 59.9
O=C(Nc1cccc(Nc2cc(Nc3cccc(C(F)(F)F)c3)ncn2)c1)C1CC1 | 102
CO[C@H]1C[C@@H]2CC[C@@H](C)[C@@](O)(O2)C(=O)C(=O)N2CCCC[C@H]2C(=O)O[C@H]([C@H](C)C[C@@H]2CC[C@@H](O)[C@H](OC)C2)CC(=O)[C@H](C)/C=C(\C)[C@@H](O)[C@@H](OC)C(=O)[C@H](C)C[C@H](C)/C=C/C=C/C=C/1C | 98.7

Sample 3
Target: Sigma intracellular receptor 2 (TMEM97, Homo sapiens, UniProt Q5BJF2)
Chain of UniProt Q5BJF2 (whole entry, looked up): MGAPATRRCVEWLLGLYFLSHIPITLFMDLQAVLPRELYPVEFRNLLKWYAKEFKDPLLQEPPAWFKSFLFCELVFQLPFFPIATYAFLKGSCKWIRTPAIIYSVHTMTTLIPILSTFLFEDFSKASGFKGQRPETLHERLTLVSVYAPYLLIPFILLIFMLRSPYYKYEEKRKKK
Observed: binding
Method: radioligand binding
Tested at: 10 µM
SMILES | inhibition
C[C@@]1(Cc2ccc(C#N)cc2)C(=O)N(c2cc(Cl)cc(Cl)c2)c2ncc(C(=O)NC3(c4nc(C5CCC5)no4)CC3)n21 | 58%
O=C([C@H]1C[C@H](O)CN1c1ccc(Cl)cc1)N1CC2COCC(C1)N2Cc1ccc(Cl)cc1 | 76.5%
Cc1nc(C2CCN(C(=O)c3ccc(OC(F)(F)F)cc3N)CC2)c2ncc(N3CCN(C)CC3)cc2n1 | 51.4%
O=C1c2ccc(Nc3ccc(F)cc3F)cc2CCc2ccc(OC[C@H](O)CO)cc21 | 53.1%
CC(=O)N1CCC(c2ccc(C(=O)NC(=N)N)cc2C(F)(F)F)CC1 | -6.34%
CNC(=O)c1ccc(Nc2ncc(C(F)(F)F)c(NCc3nccnc3N(C)S(C)(=O)=O)n2)cc1 | 48.1%
O=C(Nc1cccnn1)N1CCC(=Cc2cccc(Oc3ccc(C(F)(F)F)cn3)c2)CC1 | 91.3%
O=C(O)c1cc(-c2ccc(C3CCNCC3)cc2)c2ccc(-c3ccc(C(F)(F)F)cc3)cc2c1 | 95.6%
CN(C)C(=O)Cn1cc(-c2nc([C@@](C)(c3ccc(-c4cnc(N)nc4)cc3)C3CC3)no2)cn1 | 10.1%
COCCc1ccc(-c2c(C)nc3c(N4CCOCC4)ccnn23)cn1 | 3.07%
COc1cccc(CNC(=O)c2nc3scc(COCc4ccc(C(=O)O)cc4)c3c(=O)[nH]2)c1 | 17.7%
CN(C)CC#Cc1ccc(OCCCc2sc(N3CCc4cccc(C(=O)Nc5nc6ccccc6s5)c4C3)nc2C(=O)O)c(F)c1 | 83%
CN1C(=O)[C@@H](N2CCc3cn(Cc4ccccc4)nc3C2=O)COc2ccccc21 | 27%
COc1nc2ccc([C@@](O)(c3ccccc3)C3CCN(C(C)=O)CC3)cc2c(Cl)c1Cc1ccc(-n2cccn2)cc1 | 65.8%
CCOC(=O)c1cc2cc(-c3cc(C(=O)NCc4ccc(C(=O)O)cc4)nn3C)ccc2[nH]1 | -10.3%
CC1=C(C#N)C(c2ccc3c(c2)c(NC(=O)c2ccccc2C)nn3C)C(C#N)=C(C)N1 | 51.2%
CNC(=O)Nc1ccc2c(c1)[C@]1(CC2)OC(=O)N(CC(=O)N(Cc2ccc(F)cc2)[C@@H](C)C(F)(F)F)C1=O | 55.5%

Sample 4
Cell line: A-375
Tested at: 100 µM
Time: 36 h
Structure (SMILES) | viability [%]
CC(C)NCC(O)c1ccc(NS(C)(=O)=O)cc1 (centres unmarked) | 91.8
Oc1ccc(O)cc1 | 107
Cc1[nH]c(=O)c(C#N)cc1-c1ccncc1 | 113
CC(NCCC(c1ccccc1)c1ccccc1)c1ccccc1 (centres unmarked) | -2.47
CN1CCC(OC(c2ccccc2)c2ccccc2)CC1 | 96.7

A few entries again (sample 1):
SMILES | remaining compound [%]
O=C(Nc1ccc2nc[nH]c(=O)c2c1)c1cc(-c2ccc(Br)s2)n[nH]1 | 70.6
COc1ccc(-c2nnc(N(C)C)n2-c2ccc(C)cc2)c(OC)c1 | 21.2
Cc1ccc(S(=O)(=O)CCc2noc(C(=O)NCCc3ccc(S(N)(=O)=O)cc3)n2)cc1 | 66.9
COC(=O)c1csc(COc2ccc(F)c(F)c2)n1 | 50.3
COc1cc(OC)c(C(=O)Nc2sc(C(C)C)cc2C(=O)OC(C)C)cc1OC | 83.1
